# Results from different studies.
# Each numbered part is a random draw from the data of one study; scales do not carry over between parts.

# Series 1
# Target: Sal-like protein 4, full length isoform A (SALL4, Homo sapiens, UniProt Q9UJQ4, residues 1-1053)
# Sequence of UniProt Q9UJQ4 (whole entry, looked up): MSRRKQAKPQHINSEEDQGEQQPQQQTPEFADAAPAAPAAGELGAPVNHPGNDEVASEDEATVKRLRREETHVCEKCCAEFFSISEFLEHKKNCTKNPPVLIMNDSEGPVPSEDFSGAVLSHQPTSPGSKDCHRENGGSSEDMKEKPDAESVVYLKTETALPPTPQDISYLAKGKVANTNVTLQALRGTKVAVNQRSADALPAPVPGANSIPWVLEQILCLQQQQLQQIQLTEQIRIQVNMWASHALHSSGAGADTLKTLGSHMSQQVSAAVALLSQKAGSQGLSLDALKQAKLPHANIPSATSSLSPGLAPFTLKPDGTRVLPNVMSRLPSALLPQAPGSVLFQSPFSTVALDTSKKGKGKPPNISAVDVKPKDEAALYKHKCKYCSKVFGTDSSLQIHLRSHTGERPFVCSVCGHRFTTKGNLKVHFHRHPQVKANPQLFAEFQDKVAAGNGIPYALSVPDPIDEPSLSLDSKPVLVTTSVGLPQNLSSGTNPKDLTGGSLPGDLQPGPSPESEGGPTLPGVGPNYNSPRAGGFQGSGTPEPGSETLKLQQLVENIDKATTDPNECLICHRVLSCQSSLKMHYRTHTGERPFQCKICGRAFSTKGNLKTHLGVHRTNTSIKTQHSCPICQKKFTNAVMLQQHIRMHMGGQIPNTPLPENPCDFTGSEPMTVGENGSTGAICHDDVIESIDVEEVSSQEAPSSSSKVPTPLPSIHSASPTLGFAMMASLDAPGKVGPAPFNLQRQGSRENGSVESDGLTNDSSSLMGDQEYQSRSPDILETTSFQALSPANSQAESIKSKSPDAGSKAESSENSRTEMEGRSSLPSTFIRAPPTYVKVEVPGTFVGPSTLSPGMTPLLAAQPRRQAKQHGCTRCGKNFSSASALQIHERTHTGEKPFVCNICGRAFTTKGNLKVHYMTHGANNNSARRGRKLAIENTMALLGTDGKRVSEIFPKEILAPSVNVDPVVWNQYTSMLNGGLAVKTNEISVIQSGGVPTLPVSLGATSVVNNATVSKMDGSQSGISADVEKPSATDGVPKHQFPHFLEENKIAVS
# Technique: universal PBM
# Molecule type: double-stranded DNA, one strand shown
# Matrix: in vitro
# Tested at: 600 nM
# Setting: 8-mer, flanks averaged, mean of replicates
# Direction: higher = stronger binding
Strand,E-score
AGTCGGAG,-0.256
CTGAAAGC,-0.0803
ACAGCGCG,-0.29
GATCGCCA,-0.0468
TACAGCCA,-0.0826
GCGTTCAC,-0.0857
ACGATCGT,-0.103
CCGGCACA,-0.267
ATGTACGG,0.0481
CCTACCTC,-0.22
CTATAGAA,0.293
TCTTTCAA,0.108
CACCGACG,-0.3
ACTCCTAC,-0.0363
CAAGACGC,-0.0974

# Series 2
# Target: Prothrombin, mature alpha-thrombin (F2, Homo sapiens, UniProt P00734)
# Technique: aptamer microarray, sandwich
# Molecule type: DNA with 2'F-ANA
# Matrix: in vitro
# Tested at: 200 nM
# Setting: whole 15-mer aptamer, many near background
# Added: Cy3 exosite-II aptamer, 400 nM
# Direction: higher = stronger binding
# Strand: GGTTGGTGTGGTTGG
Modification,mean fluorescence intensity [a.u.]
2'F-ANA at 2 3 4 5 6 9 12 14 15,53.4
2'F-ANA at 3 4 5 7 8 10 11 12 14 15,54.5
2'F-ANA at 2 3 5 6 7 8 9 11 12 13,129
2'F-ANA at 1 2 3 5 6 8 9 10 13,50.9
2'F-ANA at 1 2 3 5 8 9 12 14 15,52.4
2'F-ANA at 2 3 6 7 9 10,292
2'F-ANA at 2 3 7 9 10 11 12 14 15,273
2'F-ANA at 11 12,804
2'F-ANA at 2 3 4 12 13 15,703
2'F-ANA at 2 4 7 9 11 12,497
2'F-ANA at 2 5 7 8 9 11 13 15,56.2
2'F-ANA at 2 3 5 8 11,99.3
2'F-ANA at 2 4 6 7 8 9 10 11 12 15,97
2'F-ANA at 8 14,227
2'F-ANA at 3 4 5 6 7 8 9 11 13 14,52.8
2'F-ANA at 4 7 9 12 13 14,100
2'F-ANA at 1 2 6 9 10 11 14,45.8
2'F-ANA at 2 3 4 6 9 10 11 12 13 14 15,140
2'F-ANA at 1 3 7 9 10 11 14,82.2
2'F-ANA at 2 4 5 6 7 9 14,52.1

# Series 3
# Target: Histone acetyltransferase KAT6A, winged helix 2, GST fusion (KAT6A, Homo sapiens, UniProt Q92794, residues 85-181)
# Technique: protein binding microarray
# Molecule type: double-stranded DNA, one strand shown
# Matrix: in vitro
# Tested at: not given
# Setting: 8-mer, flanks averaged, mean of 2 arrays, mostly near background
# Baseline: not given
# Direction: higher = stronger binding
# Construct (chain): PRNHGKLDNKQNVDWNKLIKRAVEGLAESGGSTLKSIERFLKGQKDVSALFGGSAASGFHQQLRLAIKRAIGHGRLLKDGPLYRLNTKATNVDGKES
Strand,E-score
AAGGGGGG,-0.0711
AATCAGGT,0.0644
CAACCATG,-0.0647
ATTGTCAC,0.035
GAGTGAAA,0.128
AGCCCTGC,0.0206
CCCTATTA,-0.0504
CTAACAAC,0.0794
AGCTCAGA,-0.0906
CGGTATCC,0.0766
ACAGTCCT,-0.295
CCCGATTA,0.0827
CCAAGCTC,0.0734
ACCTGGTG,-1e-05

# Series 4
# Substance: PhoQ, residues 284 288 289 292 302 303 SLANIV
# Technique: Sort-seq
# Refers to: YFP reporter
# Matrix: E. coli
# Setting: PhoQ-PhoP variant library
# Added: 10 µM Mg2+
# Baseline: high Mg2+ state
# Direction: higher = stronger signaling
target,fold induction
"PhoP, residues 12 14 15 18 19 NFFVT (Escherichia coli, UniProt P23836)",15.9
"PhoP, residues 12 14 15 18 19 VGHWL (Escherichia coli, UniProt P23836)",5.43
"PhoP, residues 12 14 15 18 19 LHHYF (Escherichia coli, UniProt P23836)",21.7
"PhoP, residues 12 14 15 18 19 TPWTL (Escherichia coli, UniProt P23836)",3.54

# A few entries again (series 3):
Strand,E-score
AAGGGGGG,-0.0711
AATCAGGT,0.0644
CAACCATG,-0.0647
ATTGTCAC,0.035
GAGTGAAA,0.128
AGCCCTGC,0.0206
